Measured values collected from several papers.
Every numbered part comes from another study and shows a few of its results, in no order. Substitutions count along the parent as printed.

Series 1
Target: CCNB2, cyclin fold, Cln2 fusion (human)
Technique: yeast growth competition, sequencing
Matrix: yeast
Notes: weak parent motif
Reference: not given
Reading: higher = stronger binding
Parent: PKN2 docking peptide (human); VSAVRKLDFSDTM; partner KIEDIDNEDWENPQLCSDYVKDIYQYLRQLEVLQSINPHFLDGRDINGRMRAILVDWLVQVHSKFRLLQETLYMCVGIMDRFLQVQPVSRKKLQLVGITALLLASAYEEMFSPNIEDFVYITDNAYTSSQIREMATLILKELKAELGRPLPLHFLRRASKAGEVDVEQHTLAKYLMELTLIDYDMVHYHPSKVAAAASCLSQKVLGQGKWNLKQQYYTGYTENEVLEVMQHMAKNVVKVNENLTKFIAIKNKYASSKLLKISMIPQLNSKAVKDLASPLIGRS
For `VSAVRKADFSDTM [L7A]`, “normalised enrichment score” read 0.282.
Under “normalised enrichment score”, `VSAVRKLDFSYTM [D11Y]` is recorded as 0.236.
For `VVAVRKLDFSDTM [S2V]`, “normalised enrichment score” read 0.117.
`VSAVRKLDFQDTM [S10Q]`: “normalised enrichment score” 0.728.
`VSAVRMLDFSDTM [K6M]` — result for “normalised enrichment score”: 0.404.
Under “normalised enrichment score”, `VSAVRKLDFLDTM [S10L]` is recorded as 0.345.
Under “normalised enrichment score”, `VIAVRKLDFSDTM [S2I]` is recorded as 0.481.
`VSAKRKLDFSDTM [V4K]`: “normalised enrichment score” 1.2.
Under “normalised enrichment score”, `VFAVRKLDFSDTM [S2F]` is recorded as -0.135.

Series 2
Target: RNA binding protein fox-1 homolog 2, RRM domain, GST-SBP tag (RBFOX2, Homo sapiens, UniProt O43251-10, residues 100-194)
Technique: RNA Bind-n-Seq
Molecule type: RNA
Matrix: in vitro
Tested at: 365 nM
Notes: natural RNA segment, single round, ends assumed
Reference: no-protein control
Reading: higher = stronger binding
Constant ends, left off below: GGGAGUUCUACAGUCCGACGAUC … UGGAAUUCUCGGGUGCCAA
Residues (chain): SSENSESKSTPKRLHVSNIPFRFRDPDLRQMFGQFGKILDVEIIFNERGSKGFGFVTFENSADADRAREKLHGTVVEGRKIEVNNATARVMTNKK
`UGACCGUGGCUGGCGGUCACGCCCUCAGCCCCUCCGGGCACACGUGCCGCCUGACCGGGCGACCCUUUUCAGUUCGGCAAACGUCGCUCCCUUCAUUUUGGGACUGAGGC` — result for “RBNS enrichment (R)”: 0.265.
Under “RBNS enrichment (R)”, `GCUCUCCAGAAUUACUUGUAGGUAAUUCCUCUCUUCAUGUUCUAAUAAACUUCUACAUUAUCACCAACAGCCUGAUUGCUGCUGAACACACUGGGUAAGUGUUUGCUGAG` is recorded as 0.706.
`CGCCAGCAGAACUCAAUAGCCCAGGAUGUGCUAUCGAAGACAAUGUUUUUAGUUGCUAUCUGUAGCGUGACAACGGGCAGCUAUAUUUACAGGCUUUCAUUCUAUCUUAU` — result for “RBNS enrichment (R)”: 0.387.
`AGAAGACCUCUGCUGCCACCUCGGGCUGUGCACUUGGGAUACGGUUGGUUCUCACGCCAUGAGGGAGAUGUUGGGGUAUACAGGAAGGGCAGAGUGACAUCCCCUCUCAG` — result for “RBNS enrichment (R)”: 1.23.
`CAAUCAAGUUGGCAAAUGACACAGGGAGCUGGCCCUCUGACCAUCUUCCUGGCAAACCUGGACUGGAAGGGCCAUUUGCAGCACUGUCCUGGAGCUAAUACACUGUUUCA` — result for “RBNS enrichment (R)”: 0.317.
`AUGAUUAAGUGCAUUUAAUAUUGGUAAUUUAAUGAAAACCAUUCCUUGCCCAAUGGAUGUAUAAAUUUUUGAAAGAAUAAGCAGAAUUAUAUAAUAUGAAAUGCUAUGUA`: “RBNS enrichment (R)” 0.512.
`CCAUCGUUAGGACUCCUGAGUAACCAGGAGUUGCUGACUGUCCCUUCAAGUGACUGUGGCUCCUUUCUCUCCCUGGCCCCUAGUUUCUCCAUCUCCCAGACCAAGGGGGC` — result for “RBNS enrichment (R)”: 0.162.
`AUGCUUUUUGUAUGUAUAUCACAUAGAGUAGGUUGGUUUCCUGAGUAAUUGGGAUUCCAACUAGAUAGUCAUUGGUGUGACCAUAAUAAAAACAAAAGCUAAAAUAAAAG` — result for “RBNS enrichment (R)”: 0.38.

Series 3
Target: NFIL3, bZIP domain (human)
Technique: DHFR protein complementation
Matrix: yeast
Notes: single substitutions, most at no-binding floor
Reference: wild-type JUN-FOS pair
Reading: higher = stronger binding
Parent: JUN, bZIP domain (human); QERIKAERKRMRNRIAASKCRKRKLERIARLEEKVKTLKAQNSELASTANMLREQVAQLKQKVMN; partner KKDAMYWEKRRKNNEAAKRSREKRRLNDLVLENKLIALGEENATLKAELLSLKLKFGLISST
For `V56L`, the binding fitness was -1.45 natural log.
`K34W` has a binding fitness of -1.49 natural log.
`T48D` gave a binding fitness of -1.48 natural log.
For `K39H`, the binding fitness was -1.46 natural log.
`S43Q` has a binding fitness of -1.42 natural log.
The binding fitness of `A29T` is reported as -1.34 natural log.
`L31T` has a binding fitness of -1.57 natural log.
The binding fitness of `K36L` is reported as -1.46 natural log.
For `E33K`, the binding fitness was -1.52 natural log.
The binding fitness of `L31A` is reported as -1.52 natural log.
With `K36H` the binding fitness was -1.56 natural log.
`E54S` gave a binding fitness of -1.33 natural log.
For `E44L`, the binding fitness was -1.38 natural log.
With `A57W` the binding fitness was -1.37 natural log.

Other studies, line by line
The fold induction of `PhoQ, residues 284 288 289 292 302 303 NLCILV` is reported as 0.577 (PhoP, residues 12 14 15 18 19 LHATL (Escherichia coli, UniProt P23836); Sort-seq, measured: YFP reporter; E. coli; PhoQ-PhoP variant library, together with: 10 µM Mg2+; reference: high Mg2+ state, higher = stronger signaling).

Some of these lines once more (series 3):
For `K39H`, the binding fitness was -1.46 natural log.
`S43Q` has a binding fitness of -1.42 natural log.
The binding fitness of `A29T` is reported as -1.34 natural log.
`L31T` has a binding fitness of -1.57 natural log.
The binding fitness of `K36L` is reported as -1.46 natural log.
